# Experimental data from different studies.
# Protocols differ between the studies behind these lines. Numbers after ± are the reported error.
# Cell line: MDA-MB-468
Structure (SMILES),test,setting,how to read,quantity,result
COc1ccc2c(c1)/C(=N\Nc1nnc3n1N=C(c1ccccc1)CS3)C(=O)N2,"cell growth or viability, SRB",10 µM,,inhibition,33%
NS(=O)(=O)c1ccc(Nc2nccc(-c3cn(C4CCCCC4)nn3)n2)cc1,"cell growth or viability, SRB",72 h,,IC50,> 10 µM
CCCCCCCCC=CCCCCCCCCn1c(-c2cccnc2)nc(-c2ccc(C)cc2)c1-c1ccc(C)cc1,"cell growth or viability, SRB",24 h,,IC50,> 100 µM
Cc1cc(C)nc(NC(=S)N2CCN(Cc3ccc(C(F)(F)F)cc3)CC2)c1,,"concentration not given, 4 h",,glucose concentration,no effect
CC(=O)OC[C@H]1O[C@@H](Sc2sc(C(=O)c3ccc(Br)cc3)c(N)c2-c2nc3ccccc3s2)[C@H](OC(C)=O)[C@@H](OC(C)=O)[C@@H]1OC(C)=O,SRB,"10 µM, 48 h",relative to: untreated,growth,112%
CC(=O)N[C@@H](Cc1ccc(O)cc1)CN(CC(=O)N[C@@H](CCCCN)CN(CC(=O)N[C@@H](Cc1ccccc1)CN(CC(=O)N[C@H]1CCCCNc2c(F)c(F)c(c(F)c2F)S(=O)(=O)c2c(F)c(F)c(c(F)c2F)NCCCC[C@@H](CN(CC(=O)N[C@@H](C)CN(CC(N)=O)S(C)(=O)=O)S(C)(=O)=O)NC(=O)CN(S(=O)(=O)CC(C)C)C[C@H](CC(C)C)NC(=O)CN(S(=O)(=O)CCN)C1)S(=O)(=O)CC(C)C)S(=O)(=O)CCN)S(C)(=O)=O,"cell growth or viability, CCK-8",72 h,,GI50,5.63 µM
C[C@H](NC(=O)[C@H](Cc1c[nH]c2ccccc12)NC(=O)[C@@H](N)CCCNC(=N)N)C(=O)N[C@@H](Cc1c[nH]c2ccccc12)C(=O)N[C@@H](CCCNC(=N)N)C(=O)N[C@@H](Cc1c[nH]c2ccccc12)C(=O)N[C@@H](CCC(N)=O)C(=O)N[C@@H](Cc1c[nH]c2ccccc12)C(=O)N[C@@H](CCCNC(=N)N)C(N)=O,MTT,"concentration not given, 24 h, 37 °C, 5% FBS",relative to: untreated cells,viability,40 ± 6%
CC(=O)N[C@@H](Cc1ccc(O)cc1)CN(CC(=O)N[C@@H](CCCCN)CN(CC(=O)N[C@@H](Cc1ccccc1)CN(CC(=O)N[C@H]1CCCCNc2c(F)c(F)c(c(F)c2F)S(=O)(=O)c2c(F)c(F)c(c(F)c2F)NCCCC[C@@H](CN(CC(=O)N[C@@H](C)CN(CC(N)=O)S(C)(=O)=O)S(C)(=O)=O)NC(=O)CN(S(=O)(=O)CC(C)C)C[C@H](Cc2ccccc2)NC(=O)CN(S(=O)(=O)CCN)C1)S(=O)(=O)CC(C)C)S(=O)(=O)CCN)S(C)(=O)=O,"cell growth or viability, CCK-8",72 h,,GI50,4.95 µM
Cc1ccc(-c2nc(-c3cccnc3)[nH]c2-c2ccc(C)cc2)cc1,"cell growth or viability, SRB",48 h,,IC50,50 µM
N=C(N)NCCC[C@H](NC(=O)[C@H](Cc1c[nH]c2ccccc12)NC(=O)[C@H](CCC(N)=O)NC(=O)[C@H](Cc1c[nH]c2ccccc12)NC(=O)[C@H](CCCNC(=N)N)NC(=O)[C@H](Cc1c[nH]c2ccccc12)NC(=O)[C@H](CCC(N)=O)NC(=O)[C@H](Cc1c[nH]c2ccccc12)NC(=O)[C@@H](N)CCCNC(=N)N)C(N)=O,MTT,"concentration not given, 2 h, 37 °C, 5% FBS",relative to: untreated cells,viability,23 ± 4%
Cc1cc(C)nc(NC(=S)N2CCN(c3ccc(C(F)(F)F)cn3)CC2)c1,,"concentration not given, added: U-13C-glutamine",,M+5 α-ketoglutarate production,decreased
CCCCCCCCCCCCn1c(-c2cccnc2)nc(-c2ccc(C)cc2)c1-c1ccc(C)cc1,"cell growth or viability, SRB",24 h,,IC50,> 100 µM
CC(=C(c1ccc(O)cc1)c1ccc(Cl)cc1)c1ccc(Cl)cc1,"cell growth or viability, SRB",,,GI50,0.67 µM
Cc1c(C)c(C)[c-](C)c1C.[C-]#[O+].[C-]#[O+].[C-]#[O+].[Cl-].[Cl-].[Cl-].[Ir+3].[Re+].c1cnc(-c2ncccn2)nc1,DCFDA flow cytometry,25 µM,,ROS-positive cells,49.7%
CC(=O)OC[C@H]1O[C@@H](Sc2sc(C(=O)c3ccc(C)cc3)c(N)c2-c2nc3ccccc3s2)[C@H](OC(C)=O)[C@@H](OC(C)=O)[C@H]1OC(C)=O,SRB,"10 µM, 48 h",relative to: untreated,growth,78.1%
COc1ccc2c(c1)CCn1c[n+]3c(c1-2)-c1ccc(OC)cc1CC3,"Western blot, refers to: PERK, ATF6, IRE1α","concentration not given, 24 h",,protein level,increased
CCCn1c(-c2cccnc2)nc(-c2ccc(C)cc2)c1-c1ccc(C)cc1,"cell growth or viability, SRB",48 h,,IC50,100 µM
C[C@H](NC(=O)[C@H](CCC(N)=O)NC(=O)[C@H](Cc1c[nH]c2ccccc12)NC(=O)[C@@H](N)CCCNC(=N)N)C(=O)N[C@@H](CCCNC(=N)N)C(=O)N[C@@H](Cc1c[nH]c2ccccc12)C(=O)N[C@@H](CCC(N)=O)C(=O)N[C@@H](Cc1c[nH]c2ccccc12)C(=O)N[C@@H](CCCNC(=N)N)C(N)=O,MTT,"concentration not given, 24 h, 37 °C, 5% FBS",relative to: untreated cells,viability,52 ± 1%
CCCCCCCCCCCCCCCCn1c(-c2cccnc2)nc(-c2ccc(C)cc2)c1-c1ccc(C)cc1,"cell growth or viability, SRB",48 h,,IC50,> 100 µM
C[C@H](N)C(=O)N[C@@H](Cc1c[nH]c2ccccc12)C(=O)N[C@@H](CCC(N)=O)C(=O)N[C@@H](Cc1c[nH]c2ccccc12)C(=O)N[C@@H](CCCNC(=N)N)C(=O)N[C@@H](Cc1c[nH]c2ccccc12)C(=O)N[C@@H](CCC(N)=O)C(=O)N[C@@H](Cc1c[nH]c2ccccc12)C(=O)N[C@@H](CCCNC(=N)N)C(N)=O,MTT,"concentration not given, 48 h, 37 °C, 5% FBS",relative to: untreated cells,viability,51 ± 2%
CCCCCCCCCCn1c(-c2cccnc2)nc(-c2ccc(C)cc2)c1-c1ccc(C)cc1,"cell growth or viability, SRB",48 h,,IC50,94.5 µM
CC(C)Cn1cc(-c2ccnc(Nc3ccc(N4CCN(CCCCCCC(=O)NO)CC4)cc3)n2)nn1,"cell growth or viability, SRB",72 h,,IC50,1.61 µM

# Repeated from above:
Structure (SMILES),test,setting,how to read,quantity,result
Cc1ccc(-c2nc(-c3cccnc3)[nH]c2-c2ccc(C)cc2)cc1,"cell growth or viability, SRB",48 h,,IC50,50 µM
C[C@H](N)C(=O)N[C@@H](Cc1c[nH]c2ccccc12)C(=O)N[C@@H](CCC(N)=O)C(=O)N[C@@H](Cc1c[nH]c2ccccc12)C(=O)N[C@@H](CCCNC(=N)N)C(=O)N[C@@H](Cc1c[nH]c2ccccc12)C(=O)N[C@@H](CCC(N)=O)C(=O)N[C@@H](Cc1c[nH]c2ccccc12)C(=O)N[C@@H](CCCNC(=N)N)C(N)=O,MTT,"concentration not given, 48 h, 37 °C, 5% FBS",relative to: untreated cells,viability,51 ± 2%
